Experimental data collected from several papers.
Each line is one published result; not all experiments were run side by side. ≈ marks a conversion by molar mass, not a printed value.

O=C1CCN(Cc2ccccc2)CC1C(C[N+](=O)[O-])c1ccccc1 (stereo not shown)  tail flick response (tail immersion test; BALB/c mice; ip, 50 mg/kg, 1 h): 54.1%
CN(C)c1ccc(C(=O)N[C@@H](CSCCCC(=O)NO)C(=O)Nc2ccc(-c3ccccc3)cc2)cc1  IC50 (Lucilia cuprina; pupation; LS strain, larvae on impregnated cotton wool; 216 h): 863 µg
CC(=O)[O-].O.O.O.O.[Ni+2].[O-]c1ccc(Br)cc1C=NCCN1CCOCC1  inhibition zone diameter (Chromobacterium violaceum; 20 µL of 100 µM per disc): 16 mm
O=C(CCCCCCCC(=O)NO)NO  IC50 (Lucilia cuprina; larval weight gain; LS strain, larvae on impregnated cotton wool; 24 h): > 1000 µg
CC(C)Cc1ccc(C(C)C(=O)[O][Pt]([NH2])([NH2])([Cl])([Cl])[O]C(=O)C(Cl)Cl)cc1 (stereo not shown)  mean IC50 ratio (six human cancer cell lines; MTT; reference: oxaliplatin over compound): ~8
O=C(CCCCCCC(=O)NO)NO  IC50 (Lucilia cuprina; pupation; LS strain, larvae on impregnated cotton wool; 216 h): 550 µg
CCCCC/C=C/C(=O)CCc1ccc(O)c(OC)c1  IC50 (mouse mAb 1-F12; antibody binding, indirect competitive ELISA; together with: coating antigen hapten 5-OVA): 0.118 µg/mL (≈ 0.426 µM)
C=C(c1ncc(C(=O)O)cn1)c1cc2c(cc1C)C(C)(C)CCC2(C)C  log2 fold change (RNA sequencing, item: Lrrc4c mRNA; rat, brain; dose not given, 24 h, single dose; reference: vehicle): 0.71
COc1cc(CCC(C)=O)ccc1O  IC50 (mouse mAb 1-F12; antibody binding, indirect competitive ELISA; together with: coating antigen 2-OVA): > 4 µg/mL
COc1ccc([C@@H]2CC(=O)c3c(O)cc(O[C@@H]4O[C@H](CO[C@@H]5O[C@@H](C)[C@H](O)[C@@H](O)[C@H]5O)[C@@H](O)[C@H](O)[C@H]4O)cc3O2)cc1O  viability (A549; cell growth or viability, MTS; 150 µg/mL, 48 h): 47.2%

For quick reference, copied from above:
CN(C)c1ccc(C(=O)N[C@@H](CSCCCC(=O)NO)C(=O)Nc2ccc(-c3ccccc3)cc2)cc1  IC50 (Lucilia cuprina; pupation; LS strain, larvae on impregnated cotton wool; 216 h): 863 µg
